Measurements pooled from the literature.
Each numbered part is a random draw from the data of one study; scales do not carry over between parts. Substitutions count along the parent as printed.

Series 1 — method: RNAcompete; form: RNA; matrix: in vitro; tested at: 20 nM; notes: 7-mer, probes averaged, single round; baseline: mean of 7-mers; reading: higher = stronger binding; endpoint: 7-mer Z-score
Target: PABPC1L2, full length, GST fusion (mouse, UniProt A0ABA7IW68)
Construct (chain): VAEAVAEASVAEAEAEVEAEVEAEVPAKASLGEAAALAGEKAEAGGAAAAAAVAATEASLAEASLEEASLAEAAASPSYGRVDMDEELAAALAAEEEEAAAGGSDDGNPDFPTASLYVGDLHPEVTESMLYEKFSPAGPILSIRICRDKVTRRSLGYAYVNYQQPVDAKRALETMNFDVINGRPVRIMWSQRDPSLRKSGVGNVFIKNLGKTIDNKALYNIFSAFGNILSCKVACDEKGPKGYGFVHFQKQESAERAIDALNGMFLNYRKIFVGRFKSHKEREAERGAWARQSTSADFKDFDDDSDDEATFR
GAUUCCG: -0.311
UACUCGC: -0.358
AAUGGUA: 0.0497
AGUAUGG: 0.0388
UUCUUUU: -0.139
GACACGG: -0.0264
GCAGUUG: -0.173
AGCCCCU: -0.318

Series 2 — method: DHFR PCA, deep sequencing; matrix: yeast; with: (+)-ABA 58 µM; baseline: wild-type fitted maximum; reading: higher = stronger binding; endpoint: relative binding score
Target: ABI1, truncated, D143A, DHFR fusion (Arabidopsis thaliana)
Notes: methotrexate growth selection, single substitutions
Starting sequence: PYL1, truncated, DHFR fusion (Arabidopsis thaliana); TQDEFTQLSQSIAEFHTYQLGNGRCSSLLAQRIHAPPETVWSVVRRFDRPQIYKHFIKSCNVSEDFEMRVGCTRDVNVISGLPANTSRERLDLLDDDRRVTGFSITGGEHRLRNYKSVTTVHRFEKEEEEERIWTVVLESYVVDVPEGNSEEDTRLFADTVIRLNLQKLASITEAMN; partner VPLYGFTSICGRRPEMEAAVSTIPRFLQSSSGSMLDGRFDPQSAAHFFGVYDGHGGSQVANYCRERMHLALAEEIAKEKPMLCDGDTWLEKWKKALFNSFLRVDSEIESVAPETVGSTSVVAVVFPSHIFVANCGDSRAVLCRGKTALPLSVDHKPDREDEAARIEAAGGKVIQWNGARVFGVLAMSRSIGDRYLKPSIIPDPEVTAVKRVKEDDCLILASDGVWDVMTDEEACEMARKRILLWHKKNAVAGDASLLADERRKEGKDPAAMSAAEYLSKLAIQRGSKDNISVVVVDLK
G71R: 17.7%
P146G: 50.6%
A30K: 91.7%
K168Y: 46.3%
N61S: 87.6%
D159L: -0.736%
T160D: 8.15%
H34D: 82.3%

Series 3 — method: protein-binding microarray; form: double-stranded DNA, one strand shown; matrix: in vitro; tested at: 0.8 µM; notes: whole 60-bp probe, no competitor; reading: higher = stronger binding; endpoint: fluorescence intensity; all sequences stand within: … GTCTTGATTCGCTTGACGCTGCTG
Target: Centromere-binding protein 1, full length, N-terminal tag (CBF1, Saccharomyces cerevisiae, UniProt P17106, residues 1-351)
Chain of UniProt P17106 (whole entry, looked up): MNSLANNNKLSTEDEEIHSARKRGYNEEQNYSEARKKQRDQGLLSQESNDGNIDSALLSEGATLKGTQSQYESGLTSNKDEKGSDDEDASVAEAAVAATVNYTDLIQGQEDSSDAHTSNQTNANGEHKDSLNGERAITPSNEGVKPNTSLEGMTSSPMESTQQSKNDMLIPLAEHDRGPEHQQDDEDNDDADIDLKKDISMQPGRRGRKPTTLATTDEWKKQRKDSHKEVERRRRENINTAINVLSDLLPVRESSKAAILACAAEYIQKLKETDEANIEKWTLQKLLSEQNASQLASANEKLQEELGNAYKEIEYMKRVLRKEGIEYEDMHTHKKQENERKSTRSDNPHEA
TGTACGAAGCTATGTTTCGTGCTTATAGTAGTTAGG: 502 a.u.
GAATAAAACAGACTATACATGATGTTAAGACTATAG: 504 a.u.
GAATTCGACTTGGGTGGTGGTACTTTCGATGTCTAG: 519 a.u.
CTATTCTTTCTTCTTCATGTGCATGCACTCTTTTTC: 705 a.u.
CTACTGTAAAAACCTCTCACATGTTTTTCTCTGTTC: 810 a.u.
TGTACGAAGCTATATCACCACAATATAGTAGTTAGG: 507 a.u.
CTAGCAAGGCGCGGGCGGGTGACAAGAAGATTTTTC: 480 a.u.
CTAGTTCAAGCTATTCACCTGTTACAGCAGTAGTTC: 537 a.u.

Series 4 — target: tungstate, free oxyanion; method: microfluidic competitive inhibition; matrix: in vitro, cell-free expressed; tested at: not given; reading: lower = stronger binding; endpoint: oxyanion analog dissociation constant
Notes: derived from inhibition constants, unchanged parent 2230 nM
Starting sequence: PafA, mature enzyme, eGFP fusion (Elizabethkingia meningoseptica, UniProt Q9KJX5); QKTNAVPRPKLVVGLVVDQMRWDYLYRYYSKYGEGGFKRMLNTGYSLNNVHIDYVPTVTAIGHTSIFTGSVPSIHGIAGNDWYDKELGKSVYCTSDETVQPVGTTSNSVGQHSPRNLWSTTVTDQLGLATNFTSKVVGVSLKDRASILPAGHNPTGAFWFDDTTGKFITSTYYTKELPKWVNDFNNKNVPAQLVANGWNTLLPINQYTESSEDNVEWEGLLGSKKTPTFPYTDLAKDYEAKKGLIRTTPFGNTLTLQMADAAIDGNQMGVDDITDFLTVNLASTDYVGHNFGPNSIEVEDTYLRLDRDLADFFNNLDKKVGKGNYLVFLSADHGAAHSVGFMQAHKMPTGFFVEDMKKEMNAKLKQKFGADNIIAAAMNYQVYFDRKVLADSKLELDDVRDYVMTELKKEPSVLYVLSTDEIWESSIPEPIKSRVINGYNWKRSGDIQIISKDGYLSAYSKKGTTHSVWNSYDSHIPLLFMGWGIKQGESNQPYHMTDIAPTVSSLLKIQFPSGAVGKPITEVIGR
L329G: 2.06 µM
K486V: 3.19 µM
A282G: 12.3 µM

Series 5 — target: CCNA2, cyclin fold, Cln2 fusion (human); method: yeast growth competition, sequencing; matrix: yeast; notes: strong parent motif; baseline: not given; reading: higher = stronger binding; endpoint: normalised enrichment score; starting sequence: viral docking peptide; KGVKRKLFAEDSS
KGVKRMLFAEDSS [K6M]: 5.85
KGVKRKLFASDSS [E10S]: 5.81
KGVKRKLFAEESS [D11E]: 6.35
KGVKRKLFAYDSS [E10Y]: 5.08
KGHKRKLFAEDSS [V3H]: 3.12
KGVKRKLQAEDSS [F8Q]: 0.585
KGVKRKLFTEDSS [A9T]: 5.98
KGVKRKLFAEYSS [D11Y]: 6.28
KYVKRKLFAEDSS [G2Y]: 5.68
KGVKRKLFAMDSS [E10M]: 5.66
KGVKRKLFLEDSS [A9L]: 6.15
KGVKKKLLAEDSS [R5K F8L]: 0.888
KGVKRKLFAEDVS [S12V]: 6.52
KGVKRKLRAEDSS [F8R]: 0.539
KGVKYKLFAEDSS [R5Y]: 0.415
KGVKRKLFAEQSS [D11Q]: 5.97
KGVKRKLFAEDYS [S12Y]: 5.84
KGVYRKLFAEDSS [K4Y]: 5.34
KGVKRELFAEDSS [K6E]: 5.7
KGVKRKLFAEDDS [S12D]: 6.1
KGVKRKLFSEDSS [A9S]: 6.53
KGVKRKLFADDSS [E10D]: 6.73
KGYKRKLFAEDSS [V3Y]: 4.98
KGVKRKLFQEDSS [A9Q]: 6.37
KGVKRKLFAQDSS [E10Q]: 5.4

For quick reference, copied from above (series 5):
KGVKRKLFLEDSS [A9L]: 6.15
KGVKRKLRAEDSS [F8R]: 0.539
KGVKRMLFAEDSS [K6M]: 5.85
KGVYRKLFAEDSS [K4Y]: 5.34
KGVKRKLFSEDSS [A9S]: 6.53
KGVKRKLFQEDSS [A9Q]: 6.37
